Measured values from different studies.
Numbered parts are unrelated; each lists some results of a single study. “And” joins repeats or separate records; there may be more than shown.
Chain of UniProt Q9UQ88 (whole entry, looked up): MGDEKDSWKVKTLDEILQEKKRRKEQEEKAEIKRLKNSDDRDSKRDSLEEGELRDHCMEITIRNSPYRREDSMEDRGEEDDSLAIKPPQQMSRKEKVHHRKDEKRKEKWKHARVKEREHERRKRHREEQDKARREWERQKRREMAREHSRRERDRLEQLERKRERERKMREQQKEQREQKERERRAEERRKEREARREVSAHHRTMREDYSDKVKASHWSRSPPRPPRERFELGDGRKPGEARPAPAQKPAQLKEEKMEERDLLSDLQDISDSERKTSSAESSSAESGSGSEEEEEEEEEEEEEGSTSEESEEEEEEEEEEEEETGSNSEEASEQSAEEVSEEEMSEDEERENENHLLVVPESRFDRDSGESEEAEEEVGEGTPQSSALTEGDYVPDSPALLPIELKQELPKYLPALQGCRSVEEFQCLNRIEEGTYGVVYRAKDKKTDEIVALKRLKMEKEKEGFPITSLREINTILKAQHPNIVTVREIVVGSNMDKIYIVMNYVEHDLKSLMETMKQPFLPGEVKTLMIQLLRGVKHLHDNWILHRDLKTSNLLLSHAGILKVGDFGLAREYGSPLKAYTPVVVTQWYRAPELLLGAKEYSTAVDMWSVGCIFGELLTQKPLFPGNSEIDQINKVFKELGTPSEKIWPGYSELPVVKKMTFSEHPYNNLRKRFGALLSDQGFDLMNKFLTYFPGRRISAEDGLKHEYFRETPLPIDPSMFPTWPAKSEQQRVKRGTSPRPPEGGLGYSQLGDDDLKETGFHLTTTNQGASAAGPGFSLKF
Chain of UniProt P45985 (whole entry, looked up): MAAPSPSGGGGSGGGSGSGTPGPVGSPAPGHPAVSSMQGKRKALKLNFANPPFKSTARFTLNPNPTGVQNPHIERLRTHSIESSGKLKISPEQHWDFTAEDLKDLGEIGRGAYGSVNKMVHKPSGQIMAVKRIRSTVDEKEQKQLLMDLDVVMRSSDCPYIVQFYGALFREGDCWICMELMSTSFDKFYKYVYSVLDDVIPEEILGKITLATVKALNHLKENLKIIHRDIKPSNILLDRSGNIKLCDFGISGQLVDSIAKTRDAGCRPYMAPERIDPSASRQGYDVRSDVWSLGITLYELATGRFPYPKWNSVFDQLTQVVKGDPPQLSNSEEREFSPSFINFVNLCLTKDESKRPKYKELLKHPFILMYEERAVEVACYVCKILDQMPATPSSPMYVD
Chain of UniProt P36896 (whole entry, looked up): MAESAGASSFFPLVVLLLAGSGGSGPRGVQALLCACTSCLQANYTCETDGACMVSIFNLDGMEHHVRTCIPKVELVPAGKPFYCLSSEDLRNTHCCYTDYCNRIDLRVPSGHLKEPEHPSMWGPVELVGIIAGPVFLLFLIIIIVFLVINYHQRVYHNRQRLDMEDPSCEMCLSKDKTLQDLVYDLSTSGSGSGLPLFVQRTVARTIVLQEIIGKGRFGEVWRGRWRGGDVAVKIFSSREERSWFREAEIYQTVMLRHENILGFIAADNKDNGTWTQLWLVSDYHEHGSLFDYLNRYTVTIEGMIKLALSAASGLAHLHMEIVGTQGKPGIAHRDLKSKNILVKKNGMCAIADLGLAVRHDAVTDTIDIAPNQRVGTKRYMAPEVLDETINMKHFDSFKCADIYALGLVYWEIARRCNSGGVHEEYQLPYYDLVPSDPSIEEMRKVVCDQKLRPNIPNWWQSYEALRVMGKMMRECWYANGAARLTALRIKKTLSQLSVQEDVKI
Chain of UniProt Q15375 (whole entry, looked up): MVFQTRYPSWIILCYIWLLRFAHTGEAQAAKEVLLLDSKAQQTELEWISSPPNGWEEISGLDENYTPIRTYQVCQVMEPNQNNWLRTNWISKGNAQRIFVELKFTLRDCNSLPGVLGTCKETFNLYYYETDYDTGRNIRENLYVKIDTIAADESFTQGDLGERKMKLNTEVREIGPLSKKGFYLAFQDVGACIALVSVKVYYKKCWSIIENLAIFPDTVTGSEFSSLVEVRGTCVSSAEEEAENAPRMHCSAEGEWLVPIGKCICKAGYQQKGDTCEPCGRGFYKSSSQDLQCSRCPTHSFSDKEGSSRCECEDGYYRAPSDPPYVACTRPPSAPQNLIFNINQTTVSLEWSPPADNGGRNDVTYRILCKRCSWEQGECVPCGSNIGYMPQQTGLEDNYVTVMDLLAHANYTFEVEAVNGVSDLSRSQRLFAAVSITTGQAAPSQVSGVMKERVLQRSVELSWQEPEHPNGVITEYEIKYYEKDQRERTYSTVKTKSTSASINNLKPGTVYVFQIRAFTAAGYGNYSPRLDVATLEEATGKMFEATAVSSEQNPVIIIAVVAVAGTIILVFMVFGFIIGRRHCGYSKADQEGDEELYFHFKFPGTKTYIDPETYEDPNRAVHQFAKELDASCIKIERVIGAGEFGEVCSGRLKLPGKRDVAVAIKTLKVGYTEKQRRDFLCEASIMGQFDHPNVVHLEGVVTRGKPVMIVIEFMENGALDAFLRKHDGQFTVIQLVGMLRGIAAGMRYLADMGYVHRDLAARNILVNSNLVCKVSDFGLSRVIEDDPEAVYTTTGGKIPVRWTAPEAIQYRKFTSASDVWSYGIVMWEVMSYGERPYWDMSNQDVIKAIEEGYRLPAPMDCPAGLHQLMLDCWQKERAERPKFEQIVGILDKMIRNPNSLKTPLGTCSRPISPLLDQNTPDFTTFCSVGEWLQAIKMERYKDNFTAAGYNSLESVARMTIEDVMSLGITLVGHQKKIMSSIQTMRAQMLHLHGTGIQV
Chain of UniProt Q9NRP7 (whole entry, looked up): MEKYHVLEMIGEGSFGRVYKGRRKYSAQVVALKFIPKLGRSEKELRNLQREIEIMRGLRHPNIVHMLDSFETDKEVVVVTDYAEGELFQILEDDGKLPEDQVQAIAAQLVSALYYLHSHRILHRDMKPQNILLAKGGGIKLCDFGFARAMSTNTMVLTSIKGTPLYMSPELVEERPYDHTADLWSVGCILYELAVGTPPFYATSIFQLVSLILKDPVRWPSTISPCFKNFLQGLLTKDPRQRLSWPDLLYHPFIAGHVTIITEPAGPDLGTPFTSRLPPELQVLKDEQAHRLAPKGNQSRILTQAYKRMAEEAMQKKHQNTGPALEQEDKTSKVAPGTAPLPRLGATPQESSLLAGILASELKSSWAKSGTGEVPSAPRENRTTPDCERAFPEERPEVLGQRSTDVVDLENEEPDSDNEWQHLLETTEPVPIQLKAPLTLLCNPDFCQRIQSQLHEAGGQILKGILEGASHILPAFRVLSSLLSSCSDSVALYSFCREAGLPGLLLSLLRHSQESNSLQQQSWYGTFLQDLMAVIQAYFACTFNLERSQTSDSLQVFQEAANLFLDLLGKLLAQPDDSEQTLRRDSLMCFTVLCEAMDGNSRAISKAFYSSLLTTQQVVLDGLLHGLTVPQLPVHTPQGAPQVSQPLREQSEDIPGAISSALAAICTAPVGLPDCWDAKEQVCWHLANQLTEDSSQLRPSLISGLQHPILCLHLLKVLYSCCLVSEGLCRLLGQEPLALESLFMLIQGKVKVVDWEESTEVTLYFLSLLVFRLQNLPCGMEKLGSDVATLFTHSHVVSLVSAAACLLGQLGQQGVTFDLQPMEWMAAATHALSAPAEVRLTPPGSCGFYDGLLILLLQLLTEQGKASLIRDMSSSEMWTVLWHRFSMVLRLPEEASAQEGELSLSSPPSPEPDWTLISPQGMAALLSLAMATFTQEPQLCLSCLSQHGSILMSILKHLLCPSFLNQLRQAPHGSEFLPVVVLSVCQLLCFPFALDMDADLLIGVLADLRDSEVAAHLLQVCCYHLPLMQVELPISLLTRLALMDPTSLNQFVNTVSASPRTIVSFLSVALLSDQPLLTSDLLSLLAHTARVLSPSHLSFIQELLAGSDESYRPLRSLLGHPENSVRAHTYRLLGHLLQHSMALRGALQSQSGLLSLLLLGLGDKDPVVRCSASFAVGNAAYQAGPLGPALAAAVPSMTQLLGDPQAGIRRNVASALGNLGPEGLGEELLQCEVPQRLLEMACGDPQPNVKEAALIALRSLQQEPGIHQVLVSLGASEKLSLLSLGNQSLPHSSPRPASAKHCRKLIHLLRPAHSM
Chain of UniProt P42336 (whole entry, unmodified, looked up): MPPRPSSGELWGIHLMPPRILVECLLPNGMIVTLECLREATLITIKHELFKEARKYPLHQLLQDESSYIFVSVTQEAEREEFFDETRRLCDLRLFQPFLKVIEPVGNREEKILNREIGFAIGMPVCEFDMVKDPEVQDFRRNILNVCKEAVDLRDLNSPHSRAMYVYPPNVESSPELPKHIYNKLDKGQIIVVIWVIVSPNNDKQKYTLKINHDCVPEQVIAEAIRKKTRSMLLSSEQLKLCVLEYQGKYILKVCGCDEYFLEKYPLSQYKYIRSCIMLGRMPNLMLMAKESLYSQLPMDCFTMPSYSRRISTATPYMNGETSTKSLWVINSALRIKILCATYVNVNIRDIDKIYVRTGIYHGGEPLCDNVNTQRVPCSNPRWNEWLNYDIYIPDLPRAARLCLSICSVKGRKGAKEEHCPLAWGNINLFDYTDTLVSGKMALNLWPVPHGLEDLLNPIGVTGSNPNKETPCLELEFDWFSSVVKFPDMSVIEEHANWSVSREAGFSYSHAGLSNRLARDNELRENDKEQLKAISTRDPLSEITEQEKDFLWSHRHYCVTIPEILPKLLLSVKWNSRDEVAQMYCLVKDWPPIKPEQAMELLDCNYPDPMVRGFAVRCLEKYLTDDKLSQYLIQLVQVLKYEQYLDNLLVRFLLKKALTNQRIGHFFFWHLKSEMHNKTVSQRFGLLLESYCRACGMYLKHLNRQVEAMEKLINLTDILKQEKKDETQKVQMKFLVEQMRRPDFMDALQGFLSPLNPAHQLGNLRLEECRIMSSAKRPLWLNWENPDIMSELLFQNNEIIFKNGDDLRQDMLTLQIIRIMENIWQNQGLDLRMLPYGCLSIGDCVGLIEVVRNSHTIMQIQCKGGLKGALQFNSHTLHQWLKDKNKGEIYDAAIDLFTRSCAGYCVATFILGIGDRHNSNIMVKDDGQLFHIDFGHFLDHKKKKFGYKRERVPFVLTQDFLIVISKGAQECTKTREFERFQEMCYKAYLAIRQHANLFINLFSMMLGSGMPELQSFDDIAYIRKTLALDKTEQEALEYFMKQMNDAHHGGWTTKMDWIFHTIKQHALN

Set 1
Method: PRP chromatography estimate
Matrix: 1,9-decadiene/PBS
pH: 7.4
Measurement: logD
CC(C)C[C@@H]1NC(=O)[C@H](CC(C)C)NC(=O)[C@H](CC(C)C)NC(=O)[C@H](CC(C)C)NC(=O)[C@@H](Cc2cscn2)NC(=O)[C@@H](CC(C)C)NC(=O)[C@H](C)NC1=O: 0.0754
CC(C)C[C@@H]1NC(=O)[C@H](C)NC(=O)[C@H](CC(C)C)NC(=O)[C@@H](CC(C)C)NC(=O)[C@H](CC(C)C)NC(=O)[C@H](C)NC(=O)[C@@H](CC(C)C)NC1=O: -0.341
CC(C)C[C@@H]1NC(=O)[C@H](C)NC(=O)[C@H](Cc2cscn2)NC(=O)[C@H](C)NC(=O)[C@@H](CCC(=O)N2CCCC2)NC(=O)[C@H](CC(C)C)NC(=O)[C@@H](CC(C)C)NC1=O: -2.85
CC(C)C[C@@H]1NC(=O)[C@H](CC(C)C)NC(=O)[C@H](CC(C)C)NC(=O)[C@H](C(C)C)NC(=O)[C@@H](CCC(=O)N2CCCC2)NC(=O)[C@H](C)NC(=O)[C@H](C)NC1=O: -2.46

Set 2
Host: mouse
Matrix: microsomes or S9
Concentration: 2 µM
Time: 0.5 h
Measurement: remaining compound
CCc1csc(CC(=O)N2CCCn3nccc32)n1: 46.4%
CCOc1cccc(CNC(=O)c2c(OC)cc(=O)n3c2CCCC3)c1: 1.49%
COc1cc(=O)n(C)cc1C(=O)Nc1ccccc1Br: < 1%
COc1cc(C(=O)Nc2ncc3c(n2)CC(c2ccc(C)cc2)CC3=O)cc(OC)c1OC (stereo not shown): 12.9%

Set 3
Compound: Cc1cc(NC(=O)c2cccc(S(F)(F)(F)(F)F)c2)cc(-n2ccn3nc(-c4cccnc4)cc23)c1
Read-out: cell-free assay
Method: competition with immobilised ligand
Concentration: 1 µM
Measurement: remaining binding
STK36 (Homo sapiens, UniProt Q9NRP7): 93.1%
STK10 (Homo sapiens, UniProt O94804): 26.8%
CDK11A (Homo sapiens, UniProt Q9UQ88): 95.4%
STK32C (Homo sapiens, UniProt Q86UX6): 75.8%
Aurora kinase C (AURKC, Homo sapiens, UniProt Q9UQB9): 86.7%
ACVR1B (Homo sapiens, UniProt P36896): 100%
Ribosomal protein S6 kinase alpha-6, C-terminal kinase domain (RPS6KA6, Homo sapiens, UniProt Q9UK32): 100%
MET (Homo sapiens, UniProt P08581, M1250T): 83.2%
EPHA7 (Homo sapiens, UniProt Q15375): 91.2%
CDC42BPB (Homo sapiens, UniProt Q9Y5S2): 100%
MAP2K4 (Homo sapiens, UniProt P45985): 76%
PIK3CA (Homo sapiens, UniProt P42336, Q546K): 100%
FLT3 (Homo sapiens, UniProt P36888, D835V/ITD): 66.1%
MAP3K6 (Homo sapiens, UniProt O95382): 62.7%

Set 4
Cell line: mouse MPNST tumor cells
Method: high-content nuclear imaging
Refers to: cell number
Concentration: 10 µM
Time: 12 h
Setting: mean of 2 replicates
Baseline: plate mean
Direction: higher = more cells
Measurement: nuclei count
O=C(NCCN1CCC(n2c(=O)[nH]c3ccccc32)CC1)c1cc2cc(F)ccc2[nH]1: 2.85 z-score
O=C(NNS(=O)(=O)c1ccccc1F)c1cc(F)cc(-c2ccccn2)c1: 0.606 z-score
Cc1ccc2c(c1)c1c(n2CCc2ccc(C)nc2)CCN(C)C1: 3.19 z-score
CC(NC(=O)Cc1cc(F)cc(F)c1)C(=O)NC(C(=O)OC(C)(C)C)c1ccccc1 (stereo not shown): 1.15 z-score
Nc1nc(NC2CC2)c2ncn([C@H]3C=C[C@@H](CO)C3)c2n1: 0.478 z-score and -0.314 z-score and 1.2 z-score

Single results of other studies
CC(C)S(=O)(=O)c1ccc2nccc(Nc3ccc4scnc4c3)c2c1  EC50 (HT-29; necroptosis; added: TNF-α, Smac mimetic, z-VAD): 7.9 µM

Repeated from above (set 3):
STK32C (Homo sapiens, UniProt Q86UX6): 75.8%
Aurora kinase C (AURKC, Homo sapiens, UniProt Q9UQB9): 86.7%
ACVR1B (Homo sapiens, UniProt P36896): 100%
